Assay results collected from several papers.
Numbers after ± are the reported error.

Sequences of proteins named here, by UniProt entry; tags and fusion partners are left off. Residues count along the entry.
UniProt Q9Y6W6, 321-464 limits assumed: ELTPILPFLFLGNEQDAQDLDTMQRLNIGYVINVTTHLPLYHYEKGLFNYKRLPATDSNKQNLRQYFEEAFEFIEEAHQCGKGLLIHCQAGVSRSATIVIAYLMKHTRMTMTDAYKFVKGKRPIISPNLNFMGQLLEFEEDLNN
UniProt P26045, 646-901 limits assumed: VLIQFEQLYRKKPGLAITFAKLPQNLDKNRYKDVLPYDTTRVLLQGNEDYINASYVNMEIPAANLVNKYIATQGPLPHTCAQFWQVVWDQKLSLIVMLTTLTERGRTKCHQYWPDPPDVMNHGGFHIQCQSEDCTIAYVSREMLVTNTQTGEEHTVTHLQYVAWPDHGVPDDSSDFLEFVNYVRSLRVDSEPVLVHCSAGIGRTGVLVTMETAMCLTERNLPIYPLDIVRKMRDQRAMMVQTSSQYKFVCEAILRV
UniProt O94788, 27-518 limits assumed: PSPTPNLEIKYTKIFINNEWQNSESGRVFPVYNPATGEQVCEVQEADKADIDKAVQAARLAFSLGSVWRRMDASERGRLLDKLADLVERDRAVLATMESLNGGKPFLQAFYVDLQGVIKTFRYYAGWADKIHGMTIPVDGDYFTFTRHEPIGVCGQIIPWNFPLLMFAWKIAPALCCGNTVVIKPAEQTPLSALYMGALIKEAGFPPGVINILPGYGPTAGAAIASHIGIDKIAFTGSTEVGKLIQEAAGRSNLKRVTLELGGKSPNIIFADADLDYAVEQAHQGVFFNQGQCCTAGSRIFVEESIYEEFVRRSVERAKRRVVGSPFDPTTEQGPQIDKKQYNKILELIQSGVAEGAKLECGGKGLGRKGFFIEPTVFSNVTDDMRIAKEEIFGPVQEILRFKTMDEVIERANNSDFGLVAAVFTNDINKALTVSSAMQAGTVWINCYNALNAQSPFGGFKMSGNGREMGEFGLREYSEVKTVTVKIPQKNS

For `CC(=O)N[C@@H](Cc1c[nH]cn1)C(=O)N[C@H](C(=O)NCC(=O)N[C@@H](Cc1ccccc1)C(=O)N[C@@H](CC(C)C)C(=O)N[C@H](C(=O)N[C@@H](CCC(=O)O)C(=O)N[C@@H](Cc1cc(=O)oc2cc(OP(=O)(O)O)ccc12)C(=O)N[C@H](C(=O)N[C@@H](C)C(=O)N[C@H](C(=O)N[C@@H](CCCNC(=N)N)C(=O)N[C@@H](Cc1c[nH]c2ccccc12)C(N)=O)[C@@H](C)O)C(C)C)[C@@H](C)O)[C@@H](C)O`, the Km was 15.5 µM (Dual specificity protein phosphatase 10 (Homo sapiens, UniProt Q9Y6W6); peptide hydrolysis, substrate; pH 6.0, 37 °C, 50 nM enzyme, with: ERK activation-loop peptide).
`CN(C)S(=O)(=O)c1ccc(NCCCCN2CCC(Nc3nc4ccccc4n3Cc3ccc(F)cc3)CC2)c2nonc12` has a quantum yield of 0.0153 (hERG membranes; 2.5 µM; reference: fluorescein).
The logD of `Cc1cc2c(-c3cncc(N)c3)cnc(N[C@@H]3CCNC[C@H]3OCC3CCS(=O)(=O)CC3)c2[nH]c1=O` is reported as 0.4 (chromatographic; pH 7.4).
With `O=C(c1cccc(Cl)c1)N1CCN(c2ccc(F)cc2)CC1` the IC50 was greater than 200 µM (Saccharomyces cerevisiae; cell growth, doubling time; wild type).
The EC50 of `Cc1ccccc1S(=O)(=O)Nc1cccc(C(=O)NC2CCN(c3ncnc4[nH]cnc34)CC2)c1` is reported as 2.41 µM (SARS-CoV-2; viral replication; Wuhan-Hu-1).
The Km of `CC(=O)N[C@@H](Cc1c[nH]cn1)C(=O)N[C@@H](CC(=O)O)C(=O)NCC(=O)N[C@@H](CC(C)C)C(=O)N[C@@H](Cc1cc(=O)oc2cc(OP(=O)(O)O)ccc12)C(=O)N[C@@H](CCC(N)=O)C(=O)NCC(=O)N[C@@H](CC(C)C)C(=O)N[C@@H](CO)C(=O)N[C@H](C(=O)N[C@@H](C)C(=O)N[C@H](C(=O)N[C@@H](CCCCN)C(=O)N[C@@H](CC(=O)O)C(=O)N[C@H](C(=O)N[C@@H](Cc1ccc(OP(=O)(O)O)cc1)C(=O)N[C@@H](CC(=O)O)C(=O)N[C@@H](C)C(=O)N[C@@H](CC(C)C)C(=O)N[C@@H](Cc1c[nH]cn1)C(N)=O)[C@@H](C)O)[C@@H](C)O)[C@@H](C)O` is reported as 14.4 µM (PTPN3 (Homo sapiens, UniProt P26045); peptide hydrolysis, substrate; pH 6.0, 37 °C, TCR zeta-chain ITAM peptide).
The IC50 of `O=C(c1ccc([N+](=O)[O-])cc1Cl)N1CCN(c2ccc(F)cc2)CC1` is reported as greater than 200 µM (Saccharomyces cerevisiae; cell growth, doubling time; SEC14 -136 allele; Sec14 reduced ~7-fold).
The ΔTm of `CCOc1ccsc1C(=O)N1CCN(c2ccc([N+](=O)[O-])c(N3CCCC3)c2)CC1` is reported as 8.8 ± 0.09 °C (ALDH1A2 (Homo sapiens, UniProt O94788); thermal stability, differential scanning fluorimetry; 200 µM, with: NAD 1 mM).

Excerpt of the above:
The ΔTm of `CCOc1ccsc1C(=O)N1CCN(c2ccc([N+](=O)[O-])c(N3CCCC3)c2)CC1` is reported as 8.8 ± 0.09 °C (ALDH1A2 (Homo sapiens, UniProt O94788); thermal stability, differential scanning fluorimetry; 200 µM, with: NAD 1 mM).
